Experimental data pooled from the literature.
Each line is one published result; not all experiments were run side by side. “And” joins repeats or separate records; there may be more than shown.
NECTIN4: NECTIN4 32-349 (Homo sapiens, UniProt Q96NY8)
Sequence of UniProt Q96NY8 (whole entry, looked up): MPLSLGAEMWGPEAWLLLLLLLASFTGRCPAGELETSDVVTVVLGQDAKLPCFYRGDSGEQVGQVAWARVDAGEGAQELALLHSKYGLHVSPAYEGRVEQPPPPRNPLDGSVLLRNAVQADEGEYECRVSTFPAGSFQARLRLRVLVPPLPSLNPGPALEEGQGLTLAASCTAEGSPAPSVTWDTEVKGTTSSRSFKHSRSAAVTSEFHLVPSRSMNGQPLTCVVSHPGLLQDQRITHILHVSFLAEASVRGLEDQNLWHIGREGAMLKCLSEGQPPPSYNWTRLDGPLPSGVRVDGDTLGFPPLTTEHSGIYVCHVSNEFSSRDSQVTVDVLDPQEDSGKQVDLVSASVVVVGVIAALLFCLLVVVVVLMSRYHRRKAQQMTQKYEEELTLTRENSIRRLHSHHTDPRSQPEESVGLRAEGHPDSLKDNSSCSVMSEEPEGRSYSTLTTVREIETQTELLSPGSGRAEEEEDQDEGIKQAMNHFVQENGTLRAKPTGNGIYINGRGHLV
B1: designed binder (Homo sapiens); chain MASAARLTMMWEEVTCPICLDPFVEPVSIECGHSFCQECISQVGKGGGSVCPVCRQRFLLKNLRPNRQLANMVNNLKEISQEAREGTQGERCAVHGERLHLFCEKDGKALCWVCAQSRKHRDHAMVPLEEAAQEYQEKLQVALGELRRKQELAEKLEVEIAIKRADWKKTVETQKSRIHAEFVQQKNFLVEEEQRQLQELEKDEREQLRILGEKEAKLAQQSQALQELISELDRRCHSSALELLQEVIIVLERSESWNLKDLDITSPELRSVCHVPGLKKMLRTCAGGGGSGGGGSGGGGSRLDAPSYIEVRAVRDNWAVITWDYPLAEIDGFELTYGIKDVPGDRTTIKLTEDDYYYYIDYLKPDTEYEVSLISRRGDMSSNPAKITFKTGL
B2: human HSP60; sequence looked up; chain AKDVKFGADARALMLQGVDLLADAVAVTMGPKGRTVIIEQSWGSPKVTKDGVTVAKSIDLKDKYKNIGAKLVQDVANNTNEEAGDGTTTATVLARSIAKEGFEKISKGANPVEIRRGVMLAVDAVIAELKKQSKPVTTPEEIAQVATISANGDKEIGNIISDAMKKVGRKGVITVKDGKTLNDELEIIEGMKFDRGYISPYFINTSKGQKCEFQDAYVLLSEKKISSIQSIVPALEIANAHRKPLVIIAEDVDGEALSTLVLNRLKVGLQVVAVKAPGFGDNRKNQLKDMAIATGGAVFGEEGLTLNLEDVQPHDLGKVGEVIVTKDDAMLLKGKGDKAQIEKRIQEIIEQLDVTTSEYEKEKLNERLAKLSDGVAVLKVGGTSDVEVNEKKDRVTDALNATRAAVEEGIVLGGGCALLRCIPALDSLTPANEDQKIGIEIIKRTLKIPAMTIAKNAGVEGSLIVEKIMQSSSEVGYDAMAGDFVNMVEKGIIDPTKVVRTALLDAAGVASLLTTAEVVVTEIPKEEKDPGMGAMGGMGGGMGGGMF
B3: CCL3 mature (UniProt P10147); 125I label; chain SLAADTPTACCFSYTSRQIPQNFIADYFETSSQCSKPGVIFLTKRSRQVCADPSEEWVQKYVSDLELSA
B4: CENPF 1-385 (Homo sapiens, UniProt P49454); sequence looked up; chain MSWALEEWKEGLPTRALQKIQELEGQLDKLKKEKQQRQFQLDSLEAALQKQKQKVENEKTEGTNLKRENQRLMEICESLEKTKQKISHELQVKESQVNFQEGQLNSGKKQIEKLEQELKRCKSELERSQQAAQSADVSLNPCNTPQKIFTTPLTPSQYYSGSKYEDLKEKYNKEVEERKRLEAEVKALQAKKASQTLPQATMNHRDIARHQASSSVFSWQQEKTPSHLSSNSQRTPIRRDFSASYFSGEQEVTPSRSTLQIGKRDANSSFFDNSSSPHLLDQLKAQNQELRNKINELELRLQGHEKEMKGQVNKFQELQLQLEKAKVELIEKEKVLNKCRDELVRTTAQYDQASTKYTALEQKLKKLTEDLSCQRQNAESARCSL
B5: TNFSF4 51-183 (Homo sapiens, UniProt P23510); sequence looked up; chain QVSHRYPRIQSIKVQFTEYKKEKGFILTSQKEDEIMKVQNNSVIINCDGFYLISLKGYFSQEVNISLHYQKDEEPLFQLKKVRSVNSLMVASLTYKDKVYLNVTTDNTSLDDFHVNGGELILIHQNPGEFCVL
B6: coatomer subunit beta, human; sequence looked up; chain TAAENVCYTLINVPMDSEPPSEISLKNDLEKGDVKSKTEALKKVIIMILNGEKLPGLLMTIIRFVLPLQDHTIKKLLLVFWEIVPKTTPDGRLLHEMILVCDAYRKDLQHPNEFIRGSTLRFLCKLKEAELLEPLMPAIRACLEHRHSYVRRNAVLAIYTIYRNFEHLIPDAPELIHDFLVNEKDASCKRNAFMMLIHADQDRALDYLSTCIDQVQTFGDILQLVIVELIYKVCHANPSERARFIRCIYNLLQSSSPAVKYEAAGTLVTLSSAPTAIKAAAQCYIDLIIKESDNNVKLIVLDRLIELKEHPAHERVLQDLVMDILRVLSTPDLEVRKKTLQLALDLVSSRNVEELVIVLKKEVIKTNNVSEHEDTDKYRQLLVRTLHSCSVRFPDMAANVIPVLMEFLSDNNEAAAADVLEFVREAIQRFDNLRMLIVEKMLEVFHAIKSVKIYRGALWILGEYCSTKEDIQSVMTEIRRSLGEIPIVESEIKKEAGELKPEEEITVGPVQKLVTEMGTYATQSALSSSRPTKKEEDRPPLRGFLLDGDFFVAASLATTLTKIALRYVALVQEKKKQNSFVAEAMLLMATILHLGKSSLPKKPITDDDVDRISLCLKVLSECSPLMNDIFNKECRQSLSHMLSAKLEEEKLSQKKESEKRNVTVQPDDPISFMQLTAKNEMNCKEDQFQLSLLAAMGNTQRKEAADPLASKLNKVTQLTGFSDPVYAEAYVHVNQYDIVLDVLVVNQTSDTLQNCTLELATLGDLKLVEKPSPLTLAPHDFANIKANVKVASTENGIIFGNIVYDVSGAASDRNCVVLSDIHIDIMDYIQPATCTDAEFRQMWAEFEWENKVTVNTNMVDLNDYLQHILKSTNMKCLTPEKALSGYCGFMAANLYARSIFGEDALANVSIEKPIHQGPDAAVTGHIRIRAKSQGMALSLGDKINLSQKKTSI
B7: TIMP1 (Homo sapiens, UniProt P01033); chain CTCVPPHPQTAFCNSDLVIRAKFVGTPEVNQTTLYQRYEIKMTKMYKGFQALGDAADIRFVYTPAMESVCGYFHRSHNRSEEFLIAGKLQDGLLHITTCSFVAPWNSLSLAQRRGFTKTYTVGCEECTVFPCLSIPCKLQSGTHCLWTDQLLQGSEKGFQSRHLACLPREPGLCTWQSLRSQIA
Sequence of UniProt Q13185 (whole entry, looked up): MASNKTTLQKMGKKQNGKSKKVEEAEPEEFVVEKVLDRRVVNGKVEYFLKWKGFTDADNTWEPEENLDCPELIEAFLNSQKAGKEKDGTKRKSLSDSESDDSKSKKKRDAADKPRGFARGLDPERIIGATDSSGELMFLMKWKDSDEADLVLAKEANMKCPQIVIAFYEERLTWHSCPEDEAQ
Sequence of UniProt P43124 (whole entry, looked up): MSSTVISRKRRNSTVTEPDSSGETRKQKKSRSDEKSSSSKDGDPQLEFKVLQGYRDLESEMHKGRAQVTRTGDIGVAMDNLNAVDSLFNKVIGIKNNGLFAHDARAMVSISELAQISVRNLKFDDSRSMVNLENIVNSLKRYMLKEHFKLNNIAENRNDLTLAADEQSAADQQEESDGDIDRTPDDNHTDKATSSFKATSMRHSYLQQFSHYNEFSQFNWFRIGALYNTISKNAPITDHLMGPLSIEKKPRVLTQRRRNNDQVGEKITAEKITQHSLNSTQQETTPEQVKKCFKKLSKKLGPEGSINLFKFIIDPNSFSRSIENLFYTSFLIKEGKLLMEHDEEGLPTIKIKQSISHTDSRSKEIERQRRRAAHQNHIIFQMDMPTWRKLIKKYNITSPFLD
Sequence of UniProt P33032 (whole entry, looked up): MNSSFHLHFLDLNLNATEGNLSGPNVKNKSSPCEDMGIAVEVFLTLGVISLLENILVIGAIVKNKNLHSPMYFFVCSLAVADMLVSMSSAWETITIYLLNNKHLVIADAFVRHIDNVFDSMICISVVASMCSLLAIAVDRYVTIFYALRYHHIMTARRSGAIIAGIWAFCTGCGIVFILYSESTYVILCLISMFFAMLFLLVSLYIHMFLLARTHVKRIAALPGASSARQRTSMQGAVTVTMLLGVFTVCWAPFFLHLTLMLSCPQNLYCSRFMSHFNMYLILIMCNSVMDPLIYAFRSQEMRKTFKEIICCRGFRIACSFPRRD
Sequence of UniProt P46531 (whole entry, looked up): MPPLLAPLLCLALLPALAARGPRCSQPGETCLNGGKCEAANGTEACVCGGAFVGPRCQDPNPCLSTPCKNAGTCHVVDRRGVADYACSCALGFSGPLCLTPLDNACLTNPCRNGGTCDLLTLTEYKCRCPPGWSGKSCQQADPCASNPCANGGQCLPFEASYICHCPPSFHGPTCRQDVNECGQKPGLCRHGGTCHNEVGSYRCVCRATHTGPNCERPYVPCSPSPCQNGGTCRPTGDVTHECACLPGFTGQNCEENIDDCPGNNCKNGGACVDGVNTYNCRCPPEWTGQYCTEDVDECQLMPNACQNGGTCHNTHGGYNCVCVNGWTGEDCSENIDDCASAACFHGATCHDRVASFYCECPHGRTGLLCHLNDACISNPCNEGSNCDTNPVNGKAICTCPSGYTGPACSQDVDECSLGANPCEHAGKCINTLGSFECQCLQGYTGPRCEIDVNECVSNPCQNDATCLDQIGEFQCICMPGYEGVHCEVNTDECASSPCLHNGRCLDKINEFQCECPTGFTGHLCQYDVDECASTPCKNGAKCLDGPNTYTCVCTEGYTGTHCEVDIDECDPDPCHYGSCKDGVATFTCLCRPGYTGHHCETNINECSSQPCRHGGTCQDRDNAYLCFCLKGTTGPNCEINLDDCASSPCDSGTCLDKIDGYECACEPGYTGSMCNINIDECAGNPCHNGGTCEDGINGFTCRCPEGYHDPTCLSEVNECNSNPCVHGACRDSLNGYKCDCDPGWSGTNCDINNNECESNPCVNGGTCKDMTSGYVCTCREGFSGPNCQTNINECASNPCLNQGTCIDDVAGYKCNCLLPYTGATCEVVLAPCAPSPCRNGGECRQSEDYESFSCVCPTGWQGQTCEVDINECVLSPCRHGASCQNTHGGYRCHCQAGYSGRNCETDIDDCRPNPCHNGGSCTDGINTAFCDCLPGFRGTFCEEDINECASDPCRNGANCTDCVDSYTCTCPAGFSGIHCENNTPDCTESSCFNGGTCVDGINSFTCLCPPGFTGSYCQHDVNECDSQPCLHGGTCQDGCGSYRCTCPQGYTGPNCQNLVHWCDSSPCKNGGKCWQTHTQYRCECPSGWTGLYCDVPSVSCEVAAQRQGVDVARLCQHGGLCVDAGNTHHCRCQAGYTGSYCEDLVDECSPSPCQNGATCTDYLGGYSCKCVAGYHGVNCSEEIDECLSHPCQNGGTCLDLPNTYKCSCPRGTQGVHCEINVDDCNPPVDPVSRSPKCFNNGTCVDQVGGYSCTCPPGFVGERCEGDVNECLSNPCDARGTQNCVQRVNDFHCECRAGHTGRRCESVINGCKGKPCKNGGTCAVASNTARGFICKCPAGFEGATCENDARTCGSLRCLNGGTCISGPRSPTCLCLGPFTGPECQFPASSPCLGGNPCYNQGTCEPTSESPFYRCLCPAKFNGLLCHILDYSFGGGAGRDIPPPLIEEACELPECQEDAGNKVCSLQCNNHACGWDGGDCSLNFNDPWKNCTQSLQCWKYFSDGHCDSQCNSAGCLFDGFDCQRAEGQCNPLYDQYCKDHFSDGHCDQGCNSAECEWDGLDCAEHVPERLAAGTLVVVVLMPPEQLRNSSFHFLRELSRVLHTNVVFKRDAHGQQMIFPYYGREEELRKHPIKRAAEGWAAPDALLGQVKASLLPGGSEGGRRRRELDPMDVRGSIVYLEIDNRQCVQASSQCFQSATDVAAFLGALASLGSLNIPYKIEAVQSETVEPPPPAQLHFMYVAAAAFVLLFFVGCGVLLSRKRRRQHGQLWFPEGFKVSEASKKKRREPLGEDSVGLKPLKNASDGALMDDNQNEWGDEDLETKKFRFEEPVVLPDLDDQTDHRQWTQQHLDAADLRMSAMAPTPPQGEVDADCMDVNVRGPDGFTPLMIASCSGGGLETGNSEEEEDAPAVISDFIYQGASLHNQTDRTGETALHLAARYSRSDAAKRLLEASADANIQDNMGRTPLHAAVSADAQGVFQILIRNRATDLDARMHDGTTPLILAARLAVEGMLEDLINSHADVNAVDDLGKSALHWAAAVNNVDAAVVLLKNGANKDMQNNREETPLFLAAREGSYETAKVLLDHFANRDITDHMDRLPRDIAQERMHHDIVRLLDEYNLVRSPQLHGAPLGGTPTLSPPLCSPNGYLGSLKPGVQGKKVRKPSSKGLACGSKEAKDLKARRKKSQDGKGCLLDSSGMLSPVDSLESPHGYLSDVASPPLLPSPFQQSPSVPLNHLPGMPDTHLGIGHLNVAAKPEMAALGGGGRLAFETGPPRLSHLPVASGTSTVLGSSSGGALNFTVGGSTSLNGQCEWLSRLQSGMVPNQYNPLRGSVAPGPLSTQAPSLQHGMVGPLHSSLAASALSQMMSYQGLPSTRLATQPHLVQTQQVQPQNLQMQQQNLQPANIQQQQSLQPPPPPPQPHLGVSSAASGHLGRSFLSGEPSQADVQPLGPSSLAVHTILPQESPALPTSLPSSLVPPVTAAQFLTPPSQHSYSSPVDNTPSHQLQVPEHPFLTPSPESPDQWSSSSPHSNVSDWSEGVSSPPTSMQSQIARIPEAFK
Sequence of UniProt P32245 (whole entry, looked up): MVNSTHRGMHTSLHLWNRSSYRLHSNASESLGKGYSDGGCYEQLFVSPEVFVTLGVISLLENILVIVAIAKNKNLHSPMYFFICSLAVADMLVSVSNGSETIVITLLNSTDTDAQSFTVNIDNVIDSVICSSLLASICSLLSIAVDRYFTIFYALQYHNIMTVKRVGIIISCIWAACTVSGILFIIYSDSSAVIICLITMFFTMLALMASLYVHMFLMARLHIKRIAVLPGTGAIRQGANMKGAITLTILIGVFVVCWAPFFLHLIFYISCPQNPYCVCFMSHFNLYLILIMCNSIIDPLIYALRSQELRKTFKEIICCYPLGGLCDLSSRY
Sequence of UniProt Q92945 (whole entry, looked up): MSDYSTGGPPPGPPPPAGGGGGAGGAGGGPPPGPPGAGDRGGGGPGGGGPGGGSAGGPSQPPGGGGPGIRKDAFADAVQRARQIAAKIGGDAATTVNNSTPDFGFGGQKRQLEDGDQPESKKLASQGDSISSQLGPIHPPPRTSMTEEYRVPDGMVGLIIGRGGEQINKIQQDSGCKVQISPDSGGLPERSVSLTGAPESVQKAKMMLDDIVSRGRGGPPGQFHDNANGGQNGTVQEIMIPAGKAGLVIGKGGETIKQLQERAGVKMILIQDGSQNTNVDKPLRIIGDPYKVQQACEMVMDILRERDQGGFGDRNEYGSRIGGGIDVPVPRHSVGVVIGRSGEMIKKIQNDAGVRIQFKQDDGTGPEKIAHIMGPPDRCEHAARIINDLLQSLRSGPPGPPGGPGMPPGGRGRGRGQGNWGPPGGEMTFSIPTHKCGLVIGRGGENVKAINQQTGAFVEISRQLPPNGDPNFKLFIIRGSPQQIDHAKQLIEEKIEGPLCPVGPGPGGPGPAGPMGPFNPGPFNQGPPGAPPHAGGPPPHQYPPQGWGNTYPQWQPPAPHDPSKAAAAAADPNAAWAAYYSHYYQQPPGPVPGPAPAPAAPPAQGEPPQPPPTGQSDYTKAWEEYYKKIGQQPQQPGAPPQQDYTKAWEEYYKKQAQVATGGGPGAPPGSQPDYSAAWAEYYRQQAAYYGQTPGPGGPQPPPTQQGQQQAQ

trastuzumab IgG1 (Homo sapiens)
kon (FCGR1A (Homo sapiens, UniProt P12314); SPR): 550000 M⁻¹ s⁻¹

B1 (designed binder)
koff (EED (Homo sapiens, UniProt O75530); BLI; designed binder): 0.00295 s⁻¹

DLL4 fragment (Homo sapiens)
EC50 (NOTCH1 full length, on cells (UniProt P46531); Notch1 reporter activation, agonist; CHO-K1 N1-Gal4): 0.016 µM

NSE4 (Saccharomyces cerevisiae, UniProt P43124)
interaction screen (SMC6 (Saccharomyces cerevisiae, UniProt Q12749); cross-linking MS; hits only): cross-linked

H2AC18 (Homo sapiens, UniProt Q6FI13)
interaction screen (H2BC9 (Homo sapiens, UniProt Q93079); cross-linking MS; hits only): cross-linked

FGG (Homo sapiens, UniProt P02679)
cross-linked residues (PRRC2A (Homo sapiens, UniProt P48634); cross-linking MS; together with: DSSO): K231 to K10

H3C1 N-terminal peptide, K14 propionyl
ΔH (KAT6A 194-323 (Homo sapiens, UniProt Q92794); ITC; pH 7.5): -7.11 kJ/mol

ALB (Homo sapiens, UniProt P02768)
cross-linked residues (POR (Homo sapiens, UniProt P16435); cross-linking MS; together with: DSSO): K36 to K100

DYNLRB1/DYNLL1/DYNLT1/DYNC1LI2/DYNC1I2/DYNC1H1 dynein-1 complex (Homo sapiens)
Ka (HOOK3/KASH5 chimera Hook3 CC, KASH5 LIC-BD, HaloTag; pull-down): < 1.6e+06 M⁻¹

ACTA1 (Gallus gallus, UniProt P68139)
binding event lifetime (MYH1 (Oryctolagus cuniculus, UniProt A0A5F9CQ93); laser three-bead trap; together with: ATP): 31 ms and 24 ms and 52 ms and 22 ms

B2 (human HSP60)
log2 fold change (PP6C (human); co-immunoprecipitation, IP-MS; CYB5R4 knockout cells; concentration not given; reference: CYB5R4 knockout over parental): 0.09

DSG2 (Homo sapiens, UniProt Q14126)
cross-linked residues (KHSRP (Homo sapiens, UniProt Q92945); cross-linking MS; cells; together with: iqPIR): K849 to K266

PFVVGGEDLDPFGPRRGGMIVDP (PSMF1 190-212 (Homo sapiens, UniProt Q92530))
IC50 (20S proteasome core particle (Homo sapiens, UniProt P28072); β5 activity inhibition, inhibitor; peptide; 10 nM, together with: suc-LLVY-AMC): 50 µM

AEKKDEGPYRMEHFRWGSPPKD (beta-MSH (Homo sapiens))
EC50 (MC4R (Homo sapiens, UniProt P32245); luciferase reporter, β-arrestin recruitment; peptide, HTLA): 0.00823 µM

ACPFGCMKNWSWPAWCTNK (Bicycle 70 bicyclic peptide; C-terminal amide/TATA scaffold, three cysteines cyclised)
Ki (NECTIN4; fluorescence polarisation; peptide): 0.0396 µM

ADCYAP1 PACAP (Homo sapiens)
pA2 (VIPR2 (Homo sapiens, UniProt P41587); cAMP accumulation, antagonist; Cos7; VPAC2, together with: PACAP-38): 4.37 µM

B3 (CCL3 mature)
remaining binding (CCR5 (Homo sapiens, UniProt P51681); radioligand binding; HEK-R5; together with: MβCD 5 mM; reference: untreated control, higher = more binding): 20%

INSR (Homo sapiens, UniProt P06213)
co-precipitation change (HSP90AA1 (Homo sapiens, UniProt P07900); co-IP; myocardium, lysate; DCM patients; reference: controls, higher = more co-precipitated): 1.4 fold

H2A/H2B dimer (Xenopus laevis)
dimer pull-down reduction (ARP5 557-581 L567A/L568A/D571A (Saccharomyces cerevisiae, UniProt P53946); pull-down; reference: wild-type, higher = greater reduction): 4 fold

B4 (CENPF 1-385)
affinity decrease (tubulin alpha/beta paclitaxel-stabilized microtubules (Bos taurus); co-sedimentation; reference: Ndc80, higher = weaker affinity): 3 fold

EGLN1 fragment
kon (HIF1A CODD peptide 556-574, C-terminal amide (Homo sapiens); BLI): 2000 M⁻¹ s⁻¹

SQELHKLQTYPRTNTGSGTP (salmon calcitonin 13-32, N-terminal FITC-Ahx/C-terminal amide (Salmo salar); N-terminal FITC-Ahx/C-terminal amide)
pKD (RAMP2/CALCR extracellular domain 55-140 (Homo sapiens); fluorescence polarisation; peptide): 5.77

GLP-1/MC4 receptor agonist chimeric peptide, D-Ser position 2
EC50 (MC5R (Homo sapiens, UniProt P33032); cAMP, agonist, HTRF; recombinant): 0.247 µM

PLOD2 (Homo sapiens, UniProt O00469)
cross-linked residues (GAPDH (Homo sapiens, UniProt P04406); cross-linking MS; cells; together with: iqPIR): K67 to K194

B5 (TNFSF4 51-183)
koff (TNFRSF4 29-170 D124A (Homo sapiens, UniProt P43489); SPR): 0.032 s⁻¹

DNM1L K38A (Homo sapiens)
relative GTPase activity (DNM1L 1-699 (Homo sapiens, UniProt O00429-4); GTPase activity; 1.3 µM total, varying Drp1-WT to Drp1-K38A ratios, together with: actin filaments 1 µM; higher = more activity): > 3 fold

FGB (Homo sapiens, UniProt P02675)
cross-linked residues (HECW2 (Homo sapiens, UniProt Q9P2P5); cross-linking MS; together with: DSSO): K77 to K198

MBL-A mature, hydroxylysine, hydroxyproline in collagen (Rattus norvegicus, UniProt P19999)
koff (C1S (Homo sapiens, UniProt P09871); SPR; together with: CaCl2 140 mM): 0.00094 s⁻¹

LMNA (Homo sapiens, UniProt P02545)
cross-linked residues (LMNB1 (Homo sapiens, UniProt P20700); cross-linking MS; cells; together with: BDP-NHP): K144 to K157

ACPFGCMKNWSWPIWCANK (Bicycle 72 bicyclic peptide; C-terminal amide/TATA scaffold, three cysteines cyclised)
Ki (NECTIN4; fluorescence polarisation; peptide): 0.0651 µM

ARTKQTARKSTG (histone H3 peptide 1-12; K4me1)
molecule per partner (Ehd3 417-547 Y446A (Oryza sativa, UniProt Q6ZJM9); ITC; peptide): 0.86

B6 (coatomer subunit beta, human)
log2 fold change (PP6C (human); co-immunoprecipitation, IP-MS; CYB5R4 knockout cells; concentration not given; reference: CYB5R4 knockout over parental): -0.82

FGA (Homo sapiens, UniProt P02671)
cross-linked residues (TARS1 (Homo sapiens, UniProt P26639); cross-linking MS; together with: DSSO): K195 to K28

Mcm2-7, DyLight 650 on Mcm6 N-terminus (Saccharomyces cerevisiae)
median interaction duration (ORC unphosphorylated, DyLight 550 on Orc6 (Saccharomyces cerevisiae); smFRET): 26.4 s

Cdh1/Emi1/Skp1
melting point shift (APC/C (Homo sapiens); differential scanning fluorimetry): 1.6 K

JAZ2 fragment (Arabidopsis thaliana)
IC50 (NINJA 233-425 (Arabidopsis thaliana, UniProt Q9SV55); competitor, AlphaScreen or HTRF): 0.19 µM

CBX3 (Homo sapiens, UniProt Q13185)
binding reduction (SUV39H1 catalytic domain, C-terminal truncation (Homo sapiens); pull-down; 3 µM, together with: chaetocin 0.1 µM; higher = less binding): 38%

B7 (TIMP1)
Ki (MMP2 110-452 (Homo sapiens, UniProt P08253); MMP-2 inhibition, inhibitor, Morrison tight-binding equation): 0.0052 µM

Some of these lines once more:
PLOD2 (Homo sapiens, UniProt O00469)
cross-linked residues (GAPDH (Homo sapiens, UniProt P04406); cross-linking MS; cells; together with: iqPIR): K67 to K194

GLP-1/MC4 receptor agonist chimeric peptide, D-Ser position 2
EC50 (MC5R (Homo sapiens, UniProt P33032); cAMP, agonist, HTRF; recombinant): 0.247 µM

LMNA (Homo sapiens, UniProt P02545)
cross-linked residues (LMNB1 (Homo sapiens, UniProt P20700); cross-linking MS; cells; together with: BDP-NHP): K144 to K157

DLL4 fragment (Homo sapiens)
EC50 (NOTCH1 full length, on cells (UniProt P46531); Notch1 reporter activation, agonist; CHO-K1 N1-Gal4): 0.016 µM
